Measurements pooled from the literature.
Sequence of UniProt Q00961 (whole entry, unmodified, looked up): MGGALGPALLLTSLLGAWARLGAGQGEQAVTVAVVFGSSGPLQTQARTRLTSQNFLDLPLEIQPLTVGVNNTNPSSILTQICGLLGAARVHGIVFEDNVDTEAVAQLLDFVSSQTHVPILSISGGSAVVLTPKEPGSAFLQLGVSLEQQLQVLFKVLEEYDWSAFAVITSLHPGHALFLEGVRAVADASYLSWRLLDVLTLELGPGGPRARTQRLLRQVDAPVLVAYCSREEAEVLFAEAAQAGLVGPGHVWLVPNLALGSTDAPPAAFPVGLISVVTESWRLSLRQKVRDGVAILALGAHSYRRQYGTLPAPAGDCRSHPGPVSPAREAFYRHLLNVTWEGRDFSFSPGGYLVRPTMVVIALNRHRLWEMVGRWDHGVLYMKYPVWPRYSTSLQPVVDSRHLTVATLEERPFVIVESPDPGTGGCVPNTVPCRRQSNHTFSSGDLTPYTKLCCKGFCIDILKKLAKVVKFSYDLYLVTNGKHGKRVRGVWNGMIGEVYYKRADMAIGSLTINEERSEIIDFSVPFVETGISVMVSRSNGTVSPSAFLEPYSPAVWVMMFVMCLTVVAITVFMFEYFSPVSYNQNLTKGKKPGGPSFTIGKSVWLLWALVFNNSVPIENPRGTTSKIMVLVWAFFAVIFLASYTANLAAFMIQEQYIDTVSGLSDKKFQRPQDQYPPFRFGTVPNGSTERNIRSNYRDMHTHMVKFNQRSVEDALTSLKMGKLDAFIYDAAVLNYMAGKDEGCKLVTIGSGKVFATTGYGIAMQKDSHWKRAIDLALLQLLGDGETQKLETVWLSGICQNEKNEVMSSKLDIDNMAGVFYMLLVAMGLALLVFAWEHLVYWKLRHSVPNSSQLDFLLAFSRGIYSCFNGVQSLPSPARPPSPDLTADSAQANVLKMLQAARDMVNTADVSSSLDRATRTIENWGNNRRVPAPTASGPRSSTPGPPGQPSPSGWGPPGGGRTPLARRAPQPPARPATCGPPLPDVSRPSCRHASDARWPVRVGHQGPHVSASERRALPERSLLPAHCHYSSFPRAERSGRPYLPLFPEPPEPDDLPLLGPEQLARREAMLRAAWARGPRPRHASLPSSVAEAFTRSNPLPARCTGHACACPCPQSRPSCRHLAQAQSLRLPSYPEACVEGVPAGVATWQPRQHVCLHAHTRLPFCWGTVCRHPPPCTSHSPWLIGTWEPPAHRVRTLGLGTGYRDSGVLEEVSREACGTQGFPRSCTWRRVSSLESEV
Sequence of UniProt P62813 (whole entry, looked up): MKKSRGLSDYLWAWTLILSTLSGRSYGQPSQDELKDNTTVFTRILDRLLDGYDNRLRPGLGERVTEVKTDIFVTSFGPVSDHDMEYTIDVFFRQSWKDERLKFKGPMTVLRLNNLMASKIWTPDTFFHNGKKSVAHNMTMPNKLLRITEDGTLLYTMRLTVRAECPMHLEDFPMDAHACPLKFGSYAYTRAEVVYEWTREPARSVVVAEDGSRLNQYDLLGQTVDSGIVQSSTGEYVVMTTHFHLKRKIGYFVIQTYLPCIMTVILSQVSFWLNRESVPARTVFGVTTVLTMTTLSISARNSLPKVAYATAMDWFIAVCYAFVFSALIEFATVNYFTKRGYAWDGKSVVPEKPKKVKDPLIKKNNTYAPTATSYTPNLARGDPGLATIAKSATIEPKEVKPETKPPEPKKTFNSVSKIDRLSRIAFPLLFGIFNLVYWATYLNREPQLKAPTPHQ
Sequence of UniProt P34995 (whole entry, unmodified, looked up): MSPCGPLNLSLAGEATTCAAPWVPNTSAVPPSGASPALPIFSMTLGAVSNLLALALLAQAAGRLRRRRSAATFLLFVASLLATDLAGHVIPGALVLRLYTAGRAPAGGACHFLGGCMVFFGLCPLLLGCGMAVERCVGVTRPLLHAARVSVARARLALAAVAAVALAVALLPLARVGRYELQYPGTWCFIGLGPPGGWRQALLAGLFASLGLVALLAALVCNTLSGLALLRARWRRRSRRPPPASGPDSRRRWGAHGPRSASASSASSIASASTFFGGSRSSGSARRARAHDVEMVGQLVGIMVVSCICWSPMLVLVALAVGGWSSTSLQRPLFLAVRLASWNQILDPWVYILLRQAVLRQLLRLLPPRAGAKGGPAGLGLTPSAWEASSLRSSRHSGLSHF
Sequence of UniProt P63138 (whole entry, looked up): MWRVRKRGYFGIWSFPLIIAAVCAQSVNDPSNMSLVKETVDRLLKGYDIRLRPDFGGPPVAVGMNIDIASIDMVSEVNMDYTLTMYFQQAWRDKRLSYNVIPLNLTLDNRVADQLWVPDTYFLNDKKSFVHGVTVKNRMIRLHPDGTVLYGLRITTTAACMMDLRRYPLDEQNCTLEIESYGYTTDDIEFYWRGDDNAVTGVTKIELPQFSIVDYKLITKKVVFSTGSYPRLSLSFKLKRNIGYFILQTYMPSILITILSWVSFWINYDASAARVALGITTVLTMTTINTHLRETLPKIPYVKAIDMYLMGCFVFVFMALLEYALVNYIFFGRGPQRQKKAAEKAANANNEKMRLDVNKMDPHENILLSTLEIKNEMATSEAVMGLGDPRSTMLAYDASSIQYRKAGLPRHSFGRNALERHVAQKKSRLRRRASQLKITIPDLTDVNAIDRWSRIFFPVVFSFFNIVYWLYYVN
Sequence of UniProt P18508 (whole entry, looked up): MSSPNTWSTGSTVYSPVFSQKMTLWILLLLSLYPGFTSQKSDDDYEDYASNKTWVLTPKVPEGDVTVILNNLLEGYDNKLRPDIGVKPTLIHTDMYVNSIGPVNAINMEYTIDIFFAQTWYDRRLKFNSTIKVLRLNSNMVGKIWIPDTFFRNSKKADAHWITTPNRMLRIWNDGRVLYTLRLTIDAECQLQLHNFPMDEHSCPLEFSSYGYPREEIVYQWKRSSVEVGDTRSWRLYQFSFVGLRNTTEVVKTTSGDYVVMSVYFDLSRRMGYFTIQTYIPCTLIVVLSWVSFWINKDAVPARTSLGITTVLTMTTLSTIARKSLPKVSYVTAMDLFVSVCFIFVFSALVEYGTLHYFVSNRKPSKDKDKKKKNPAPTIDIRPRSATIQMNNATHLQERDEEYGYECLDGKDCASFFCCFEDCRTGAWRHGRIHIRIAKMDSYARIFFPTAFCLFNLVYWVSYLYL
Sequence of UniProt Q13133 (whole entry, looked up): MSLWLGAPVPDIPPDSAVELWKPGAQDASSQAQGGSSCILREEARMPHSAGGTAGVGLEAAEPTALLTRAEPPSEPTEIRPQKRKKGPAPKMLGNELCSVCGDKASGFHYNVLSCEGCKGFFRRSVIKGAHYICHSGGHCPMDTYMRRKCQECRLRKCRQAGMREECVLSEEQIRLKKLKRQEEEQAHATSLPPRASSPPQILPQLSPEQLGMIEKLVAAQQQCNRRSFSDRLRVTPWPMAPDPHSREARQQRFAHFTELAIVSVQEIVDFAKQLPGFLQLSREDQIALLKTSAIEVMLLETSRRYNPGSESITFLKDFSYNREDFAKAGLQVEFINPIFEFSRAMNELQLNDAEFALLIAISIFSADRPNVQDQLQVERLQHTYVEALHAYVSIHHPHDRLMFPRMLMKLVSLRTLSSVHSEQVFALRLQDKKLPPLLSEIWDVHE
Sequence of UniProt P11229 (whole entry, looked up): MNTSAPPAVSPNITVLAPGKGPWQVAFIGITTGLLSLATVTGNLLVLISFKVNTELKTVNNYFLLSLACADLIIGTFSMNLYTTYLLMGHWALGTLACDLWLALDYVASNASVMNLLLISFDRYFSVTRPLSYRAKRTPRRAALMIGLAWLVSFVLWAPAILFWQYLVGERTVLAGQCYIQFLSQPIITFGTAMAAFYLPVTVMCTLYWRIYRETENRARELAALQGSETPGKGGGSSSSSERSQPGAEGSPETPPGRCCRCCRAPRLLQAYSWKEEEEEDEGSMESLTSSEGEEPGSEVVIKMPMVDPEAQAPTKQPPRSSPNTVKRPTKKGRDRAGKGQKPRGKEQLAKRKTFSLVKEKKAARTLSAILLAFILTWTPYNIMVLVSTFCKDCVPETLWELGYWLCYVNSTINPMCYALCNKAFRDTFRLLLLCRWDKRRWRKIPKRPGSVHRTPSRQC
Sequence of UniProt Q8BZ39 (whole entry, looked up): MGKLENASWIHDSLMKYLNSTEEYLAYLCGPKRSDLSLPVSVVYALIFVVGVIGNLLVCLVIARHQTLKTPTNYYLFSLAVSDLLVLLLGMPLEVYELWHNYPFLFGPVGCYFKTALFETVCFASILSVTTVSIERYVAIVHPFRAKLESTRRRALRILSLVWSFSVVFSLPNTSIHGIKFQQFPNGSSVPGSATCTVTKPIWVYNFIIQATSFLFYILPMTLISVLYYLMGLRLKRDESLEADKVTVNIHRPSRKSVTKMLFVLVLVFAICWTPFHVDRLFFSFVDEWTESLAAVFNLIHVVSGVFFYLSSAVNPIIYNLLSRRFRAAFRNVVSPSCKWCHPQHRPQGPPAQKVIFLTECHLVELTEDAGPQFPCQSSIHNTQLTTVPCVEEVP
Sequence of UniProt O14965 (whole entry, looked up): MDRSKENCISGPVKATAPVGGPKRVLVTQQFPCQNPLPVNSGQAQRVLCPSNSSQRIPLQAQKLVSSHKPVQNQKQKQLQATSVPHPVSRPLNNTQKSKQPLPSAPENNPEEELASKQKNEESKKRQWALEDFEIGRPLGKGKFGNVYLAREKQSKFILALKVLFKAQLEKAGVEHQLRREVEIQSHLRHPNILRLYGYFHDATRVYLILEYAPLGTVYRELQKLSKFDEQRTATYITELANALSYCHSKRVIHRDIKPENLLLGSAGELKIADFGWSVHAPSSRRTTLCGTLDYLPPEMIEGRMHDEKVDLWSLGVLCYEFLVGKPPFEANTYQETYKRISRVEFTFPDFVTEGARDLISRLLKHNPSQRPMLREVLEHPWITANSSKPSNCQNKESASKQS

SMILES | target | assay | test system | conditions | EC50 [nM]
CCOc1ccc(N(C)S(=O)(=O)c2cc(Cl)sc2C(=O)Nc2ccc3c(c2)C(=O)NC3=O)cc1OC | NR1H3 (Homo sapiens, UniProt Q13133) |  |  |  | > 25000
N[C@H](CNC(=O)c1cc(Br)c(-c2ccccc2F)s1)C(=O)O | Glutamate NMDA receptor; Grin1/Grin2c (Rattus norvegicus, UniProt P35439+Q00961, V689I) | receptor activation, positive modulator | rat | together with: glutamate 300 µM | 13.2
CC(C)C[C@H](NC(=O)[C@H](Cc1ccccc1)NC(=O)[C@H](Cc1ccc(O)cc1)NC(=O)CNC(=O)[C@H](CCCNC(=N)N)NC(=O)[C@H](CO)NC(=O)[C@H](CCC(N)=O)NC(=O)[C@H](CO)NC(=O)[C@H](C)NC(=O)[C@H](Cc1ccccc1)NC(=O)[C@@H]1CCCN1C(=O)[C@H](CO)NC(=O)[C@H](CCC(N)=O)NC(=O)[C@H](Cc1ccccc1)NC(=O)[C@H](CCC(=O)O)NC(=O)[C@H](CCC(=O)O)NC(=O)[C@H](CC(=O)O)NC(=O)[C@@H](NC(=O)[C@H](CCCNC(=N)N)NC(=O)[C@@H](N)Cc1ccccc1)C(C)C)C(=O)N[C@@H](Cc1ccccc1)C(=O)N[C@@H](CCCNC(=N)N)C(=O)N1CCC[C@H]1C(=O)N[C@@H](CCCNC(=N)N)C(=O)N[C@@H](CC(N)=O)C(N)=O | Neuromedin-U receptor 2 (Mus musculus, UniProt Q8BZ39) | β-arrestin recruitment, agonist |  |  | 0.33
Cn1cc2c(C(=O)O)ccc(NS(=O)(=O)c3ccc(OCC4CCC4)c(Cl)c3)c2n1 | CHRM1 (Homo sapiens, UniProt P11229) | agonist |  |  | > 10000
CCCCC[C@H](O)/C=C/[C@H]1[C@H](O)CC(=O)[C@@H]1C/C=C\CCCC(=O)O | PTGER1 (Homo sapiens, UniProt P34995, G92T) | IP1 accumulation, agonist | AD293 | EP1 G92T mutant | 13.4
CCc1ccccc1-c1ccc(C(=O)NC[C@@H](N)C(=O)O)s1 | Glutamate NMDA receptor; Grin1/Grin2c (Rattus norvegicus, UniProt P35439+Q00961, S688A) | receptor activation, positive modulator | rat | together with: glutamate 300 µM | 2
Cn1cnc2ccc(Nc3c(F)ccc(NS(=O)(=O)N4CC(F)C4)c3Cl)c(Cl)c2c1=O | BRAF (Homo sapiens, UniProt P15056, V600E) | target engagement, isothermal dose-response CETSA, LC-MS | A-375 | 30 min, 37 °C | 34.4
CCCCNc1c(C(=O)OCC)c(C)nc2c1cnn2CC | GABA-A receptor; alpha-1/beta-2/gamma-2 (Rattus norvegicus, UniProt P18508+P62813+P63138) | chloride current, agonist, whole-cell patch clamp | HEK293 expressing GABAA | 30 s | 12000
NC[C@H](O)c1ccc(O)c(O)c1 | ADRA2B (Homo sapiens, UniProt P18089) | AP-TGFα shedding | HEK293A |  | 4.7
COc1cc(Nc2ncc3c(n2)-c2ccc(Cl)cc2C(c2c(F)cccc2OC)=NC3)ccc1C(=O)NCCOCCOCCNC(=O)COc1cccc2c1C(=O)N(C1CCC(=O)NC1=O)C2=O (stereo not shown) | Aurora kinase A (AURKA, Homo sapiens, UniProt O14965) | binding, kinobead competition | MV4-11 cell lysate |  | 321

Excerpt of the above:
SMILES | target | assay | test system | conditions | EC50 [nM]
CCc1ccccc1-c1ccc(C(=O)NC[C@@H](N)C(=O)O)s1 | Glutamate NMDA receptor; Grin1/Grin2c (Rattus norvegicus, UniProt P35439+Q00961, S688A) | receptor activation, positive modulator | rat | together with: glutamate 300 µM | 2
